# Experimental data gathered from unrelated publications.
# Every numbered part comes from another study and shows a few of its results, in no order.

# Study 1 — technique: RNA Bind-n-Seq; molecule type: RNA; medium: in vitro; concentration: 1 µM; setting: whole 134-nt RNA, ends assumed; added: 150 mM KCl; relative to: input library; reading: higher = stronger binding
# Target: Ras GTPase-activating protein-binding protein 1, C-terminal RGG region (G3BP1, Homo sapiens, UniProt Q13283)
# UniProt Q13283, sequence (whole entry, looked up): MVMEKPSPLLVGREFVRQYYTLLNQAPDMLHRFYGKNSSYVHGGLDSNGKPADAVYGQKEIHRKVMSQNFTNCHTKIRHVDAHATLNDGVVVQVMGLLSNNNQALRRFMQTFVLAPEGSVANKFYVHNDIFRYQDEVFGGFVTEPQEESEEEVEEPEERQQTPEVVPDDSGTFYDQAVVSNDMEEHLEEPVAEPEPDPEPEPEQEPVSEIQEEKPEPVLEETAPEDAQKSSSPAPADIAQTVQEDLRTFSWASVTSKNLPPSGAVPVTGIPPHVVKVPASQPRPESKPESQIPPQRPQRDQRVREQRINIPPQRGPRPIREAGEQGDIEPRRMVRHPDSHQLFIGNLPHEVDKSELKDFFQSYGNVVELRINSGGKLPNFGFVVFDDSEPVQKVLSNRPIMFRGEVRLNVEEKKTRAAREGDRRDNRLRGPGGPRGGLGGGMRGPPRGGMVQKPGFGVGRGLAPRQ
# Shared flanks, not repeated: GGGAGUUCUACAGUCCGACGAUC … UGGAAUUCUCGGGUGUCAAGG
Strand,log2 enrichment
UGGCCCUGGUGGCAUGCGGCGAGGAAGAGGUGGCCUCAUGGAUCGUGGUGGUCCCGGUGGAAUGUUCAGAGGUGGCCGUGGUGGAGACAG,1.89
UGGACGAUGAAGAGGAAACAAUUGAAGAGGAGGAAGCAAAUGAAGGCGUUGUGGACCACCAAACAGAACUUUCUAAUUUAGCCAAGGAAG,-0.537
UGUGCUACACAUCGUAUGUACCGAAUCGGGGAAAAAAAGGGGAAAAAAAGGAAAAAAAGGGGAAAGUAUUAUGUUACGCCGUUCGGAUCU,-0.95
CUGUGCUACACAUCGUAUGUACCGAAUCGGGGUUUUUUUGGGGUUUGGGGUUUUUUUGGGGAAAGUAUUAUGUUACGCCGUUCGGAUCUG,0.192
AAGUCCUGUGCUACACAUCGUAUGUACCGAAUCGGAAAGGAAAAAGGUUUUUUUGGAAAGUAUUAUGUUACGCCGUUCGGAUCUGCACUU,-2.12
AGUCCUGUGCUACACAUCGUAUGUACCGAAUCGGGCCCCCGGCCCCCGGCCCCCGGGGAAAGUAUUAUGUUACGCCGUUCGGAUCUGCAC,-2.3
UAACUUUAGAGGAGGAUCUGAUGGAUAUGGCAGUGGACGUGGAUUUGGGGAUGGCUAUAAUGGGUAUGGAGGAGGACCUGGAGGUGGCUA,-0.862
UUUUUGAAUCAAUUUUUAAAACAUGCCAUUGUGUUUCAGGCUCGCGGGAUUGAUGUGCAACAAGUGUCUUUGGUUAUAAAUUAUGAUCUA,-0.545
AAGUCCUGUGCUACACAUCGUAUGUACCGAAUCGGGCCCGGGGCCCGGGGCCCGGGAAAGUAUUAUGUUACGCCGUUCGGAUCUGCACUU,-2.29

# Study 2 — technique: aptamer microarray, sandwich; molecule type: DNA with 2'F-ANA; medium: in vitro; concentration: 200 nM; added: Cy3 exosite-II aptamer, 400 nM; reading: higher = stronger binding; strand: GGTTGGTGTGGTTGG
# Target: Prothrombin, mature alpha-thrombin (F2, Homo sapiens, UniProt P00734)
# Setting: whole 15-mer aptamer, many near background
Modification,mean fluorescence intensity [a.u.]
2'F-ANA at 2 3 7 9 15,788
2'F-ANA at 7 9 10 12 14,132
2'F-ANA at 1 2 4 6 11 12 13 15,131
2'F-ANA at 1 2 5 7 14,56.3
2'F-ANA at 3 7 8 9 11 12,1430
2'F-ANA at 4 5 6 8 11 15,72.3
2'F-ANA at 3 4 5 8 12 14,60.7

# Further values, each from its own experiment
Substance,tested on,assay,system,conditions,how to read,measurement,result
"RFC2 (Homo sapiens, UniProt P35250)","RFC1 (Homo sapiens, UniProt P35251)",cross-linking MS,cell fractions,added: DMTMM,,cross-linked residues,E329 to K928
"PhoQ, residues 284 288 289 292 302 303 SSTMSV","PhoP, residues 12 14 15 18 19 NHTVL (Escherichia coli, UniProt P23836)","Sort-seq, item: YFP reporter",E. coli,"PhoQ-PhoP variant library, added: 10 µM Mg2+","relative to: high Mg2+ state, higher = stronger signaling",fold induction,1.05
